Measurements collected from several papers.
A part holds a random share of what one study measured. “And” joins repeats or separate records; there may be more than shown.

Study 1 — observed: enzyme activity; mode: inhibitor; concentration: 10 µM; measurement: inhibition
Target: Calcium/calmodulin-dependent protein kinase type II subunit alpha (CAMK2A, Homo sapiens, UniProt Q9UQM7)
UniProt Q9UQM7, sequence (whole entry, looked up): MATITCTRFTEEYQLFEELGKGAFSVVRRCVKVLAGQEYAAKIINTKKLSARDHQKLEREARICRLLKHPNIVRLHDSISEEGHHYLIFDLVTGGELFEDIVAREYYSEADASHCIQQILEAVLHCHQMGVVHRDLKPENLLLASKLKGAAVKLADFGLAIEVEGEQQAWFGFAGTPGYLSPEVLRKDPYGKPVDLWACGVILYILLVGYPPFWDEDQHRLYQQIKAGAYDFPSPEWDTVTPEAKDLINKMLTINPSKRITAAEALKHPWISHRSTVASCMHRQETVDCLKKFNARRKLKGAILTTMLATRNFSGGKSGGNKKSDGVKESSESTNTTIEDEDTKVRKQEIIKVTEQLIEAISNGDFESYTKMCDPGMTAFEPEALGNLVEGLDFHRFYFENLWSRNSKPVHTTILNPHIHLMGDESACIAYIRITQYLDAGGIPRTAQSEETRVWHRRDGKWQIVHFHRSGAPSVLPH
SMILES = CC(=O)N[C@H](Cc1ccc2ccccc2c1)C(=O)N[C@H](Cc1ccc(Cl)cc1)C(=O)N[C@H](Cc1cccnc1)C(=O)N[C@@H](CO)C(=O)N[C@@H](Cc1ccc(NC(=O)[C@@H]2CC(=O)NC(=O)N2)cc1)C(=O)N[C@H](Cc1ccc(NC(N)=O)cc1)C(=O)N[C@@H](CC(C)C)C(=O)N[C@@H](CCCCNC(C)C)C(=O)N1CCC[C@H]1C(=O)N[C@H](C)C(N)=O; value = -5%
SMILES = CCOc1nc2cccc(C(=O)OCc3oc(=O)oc3C)c2n1Cc1ccc(-c2ccccc2-c2noc(=O)[nH]2)cc1; value = -2%
SMILES = NC(N)=NCCCC(N)C(=O)O (racemic); value = 39%
SMILES = C[C@H]1c2cccc(O)c2C(O)=C2C(=O)[C@]3(O)C(O)=C(C(N)=O)C(=O)[C@@H](N(C)C)[C@@H]3[C@@H](O)[C@@H]21; value = -9%
SMILES = CCCc1nc2c(C)cc(-c3nc4ccccc4n3C)cc2n1Cc1ccc(-c2ccccc2C(=O)O)cc1; value = 4%
SMILES = C=C1CC[C@@]2(OC1)O[C@H]1C[C@H]3[C@@H]4CC=C5C[C@@H](O)C[C@@H](O)[C@]5(C)[C@H]4CC[C@]3(C)[C@H]1[C@@H]2C; value = 32%
SMILES = OC[C@H]1O[C@H](OC[C@H]2O[C@H](O[C@H]3[C@H](O)[C@@H](O)[C@@H](O)O[C@@H]3CO)[C@H](O)[C@@H](O)[C@@H]2O[C@H]2O[C@H](CO)[C@@H](O)[C@H](O)[C@H]2O)[C@H](O)[C@@H](O)[C@@H]1O; value = -0.51% and 0.05%
SMILES = COc1cc2c(c(OC)c1OC)-c1c(cc3c(c1OC)OCO3)[C@H](OC(=O)c1ccccc1)[C@@](C)(O)[C@@H](C)C2; value = -8%

Study 2 — cell line: normal organoid sample D; technique: CellTiter-Glo; species: human; matrix: normal-adjacent epithelium; concentration: 0.1 µM; relative to: DMSO; measurement: viability
SMILES = CC(C)CC(=O)N1CCc2nc(-c3ccc(Br)cc3)nc(N(C)Cc3ccccc3)c2C1; value = 108% and 127%
SMILES = O=C(c1ccc(F)cc1)N1CC(COc2ccc(Br)cc2)(C(=O)O)C1; value = 109% and 96.4%
SMILES = CS(=O)(=O)NCC[C@H](NC(=O)c1cncc2c1cnn2-c1ccc(F)cc1)c1ccnc(S(C)(=O)=O)c1; value = 106% and 98.1%
SMILES = COc1ccc2cc(OCC3(C(=O)O)CN(C(=O)c4ccc(F)cc4)C3)ccc2c1; value = 118% and 97.3%
SMILES = Cc1c[nH]c2nccc(Oc3c(F)cc(Nc4cc(Cl)nc(N)n4)cc3F)c12; value = 115% and 126%
SMILES = COCCOc1nc(-c2ccc(Cl)nc2)nc2c1CN(C(=O)c1ncn3ccccc13)CC2; value = 115% and 123%
SMILES = O=C(Nc1ccc(Oc2ccc(F)cc2)cc1)N1CCc2ncccc2[C@H]1c1ccc(F)cc1; value = 101% and 108%

Study 3 — observed: enzyme activity; mode: inhibitor; concentration: 0.5 µM; relative to: control; measurement: remaining activity
Target: Cyclin-dependent kinase 3, with cyclin E (CDK3, Homo sapiens, UniProt Q00526)
UniProt Q00526, sequence (whole entry, looked up): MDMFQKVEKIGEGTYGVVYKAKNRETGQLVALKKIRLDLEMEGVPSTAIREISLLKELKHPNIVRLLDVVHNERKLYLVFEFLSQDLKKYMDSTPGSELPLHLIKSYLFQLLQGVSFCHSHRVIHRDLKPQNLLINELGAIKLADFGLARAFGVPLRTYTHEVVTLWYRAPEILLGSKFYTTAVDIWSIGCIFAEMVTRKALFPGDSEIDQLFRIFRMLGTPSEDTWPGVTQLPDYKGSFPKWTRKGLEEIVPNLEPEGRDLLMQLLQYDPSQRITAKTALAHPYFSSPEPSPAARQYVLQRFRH
SMILES = COc1cc2c(cc1OC)-c1[nH]nc(Nc3cccc(F)c3)c1C2; value = 95.4%
SMILES = Cc1nc2cc3nc(-c4cccs4)cnc3cc2n1C; value = 93.6%
SMILES = CN(C)C[C@H]1CCn2c(c(C3=C(c4cn(C)c5ccccc45)C(=O)NC3=O)c3ccccc32)C1; value = 62.4%
SMILES = c1ccc(-c2[nH]ncc2-c2ccnc3ccccc23)nc1; value = 94.2%
SMILES = O=c1cc(-c2cccc3c2Sc2ccccc2S3)oc(N2CCOCC2)c1; value = 101%
SMILES = COc1cc2ncnc(Nc3ccc(O)c(Br)c3)c2cc1OC; value = 93.5%
SMILES = c1ccc(-c2cnc(Nc3ccc(OCCN4CCCC4)cc3)s2)cc1; value = 97.6%
SMILES = O=C1c2ccccc2-c2n[nH]c3cccc1c23; value = 94.3%
SMILES = Cc1cc2ncc(-c3ccccc3)nc2cc1C; value = 96.7%
SMILES = O=C(NC(NC(=S)Nc1ccc(F)c([N+](=O)[O-])c1)C(Cl)(Cl)Cl)C(c1ccccc1)c1ccccc1 (centres unmarked); value = 105%
SMILES = CN([C@@H](Cc1ccc(OS(=O)(=O)c2cccc3cnccc23)cc1)C(=O)N1CCN(c2ccccc2)CC1)S(=O)(=O)c1cccc2cnccc12; value = 101%
SMILES = CCN(CC)CCNC(=O)c1c(C)[nH]c(/C=C2\C(=O)Nc3ccc(Cl)cc32)c1C; value = 88.3%
SMILES = CCN(CC)CCNC(=O)c1c(C)[nH]c(/C=C2\C(=O)Nc3ccc(F)cc32)c1C; value = 91%
SMILES = Nc1cccc(-c2cc3c(Oc4cccc(O)c4)ncnc3[nH]2)c1; value = 82.3%
SMILES = O=C1c2ccccc2-[n+]2ccc3c([nH]c4ccccc43)c21; value = 80.1%
SMILES = Cn1nc2c3c(cccc31)C(=O)c1ccccc1-2; value = 87.5%
SMILES = Cc1cn(-c2cc(NC(=O)c3ccc(C)c(Nc4nccc(-c5cccnc5)n4)c3)cc(C(F)(F)F)c2)cn1; value = 95.2%
SMILES = COc1cc2ncnc(Nc3cccc(Cl)c3)c2cc1OC; value = 95.2%
SMILES = O=C1C(Cl)=C(N2C(=O)CCC2=O)C(=O)c2ccccc21; value = 102%
SMILES = Ic1cccc(CSc2nnc(-c3ccncc3)o2)c1; value = 87.4%
SMILES = CCN(CC)C(=O)c1ccc(Nc2nc(OCC3CCCCC3)c3[nH]cnc3n2)cc1; value = 90.4%
SMILES = CCOc1nc(NC(=O)Cc2cc(OC)ccc2OC)cc(N)c1C#N; value = 97.7%
SMILES = N#Cc1c(NC(=O)c2cccc3ccccc23)sc2c1CCCC2; value = 99.2%
SMILES = C[C@@H]1CCN(C(=O)CC#N)C[C@@H]1N(C)c1ncnc2[nH]ccc12; value = 92.3%
SMILES = O=C(Nc1cccc(Nc2nccc(Nc3cccc(C(F)(F)F)c3)n2)c1)C1CC1; value = 98.1%

Study 4 — observed: enzyme activity; mode: inhibitor; concentration: 77 µM; relative to: untreated; measurement: remaining activity
Target: DNA polymerase theta, ATPase domain (POLQ, Homo sapiens, UniProt O75417)
UniProt O75417, sequence (whole entry, unmodified, looked up): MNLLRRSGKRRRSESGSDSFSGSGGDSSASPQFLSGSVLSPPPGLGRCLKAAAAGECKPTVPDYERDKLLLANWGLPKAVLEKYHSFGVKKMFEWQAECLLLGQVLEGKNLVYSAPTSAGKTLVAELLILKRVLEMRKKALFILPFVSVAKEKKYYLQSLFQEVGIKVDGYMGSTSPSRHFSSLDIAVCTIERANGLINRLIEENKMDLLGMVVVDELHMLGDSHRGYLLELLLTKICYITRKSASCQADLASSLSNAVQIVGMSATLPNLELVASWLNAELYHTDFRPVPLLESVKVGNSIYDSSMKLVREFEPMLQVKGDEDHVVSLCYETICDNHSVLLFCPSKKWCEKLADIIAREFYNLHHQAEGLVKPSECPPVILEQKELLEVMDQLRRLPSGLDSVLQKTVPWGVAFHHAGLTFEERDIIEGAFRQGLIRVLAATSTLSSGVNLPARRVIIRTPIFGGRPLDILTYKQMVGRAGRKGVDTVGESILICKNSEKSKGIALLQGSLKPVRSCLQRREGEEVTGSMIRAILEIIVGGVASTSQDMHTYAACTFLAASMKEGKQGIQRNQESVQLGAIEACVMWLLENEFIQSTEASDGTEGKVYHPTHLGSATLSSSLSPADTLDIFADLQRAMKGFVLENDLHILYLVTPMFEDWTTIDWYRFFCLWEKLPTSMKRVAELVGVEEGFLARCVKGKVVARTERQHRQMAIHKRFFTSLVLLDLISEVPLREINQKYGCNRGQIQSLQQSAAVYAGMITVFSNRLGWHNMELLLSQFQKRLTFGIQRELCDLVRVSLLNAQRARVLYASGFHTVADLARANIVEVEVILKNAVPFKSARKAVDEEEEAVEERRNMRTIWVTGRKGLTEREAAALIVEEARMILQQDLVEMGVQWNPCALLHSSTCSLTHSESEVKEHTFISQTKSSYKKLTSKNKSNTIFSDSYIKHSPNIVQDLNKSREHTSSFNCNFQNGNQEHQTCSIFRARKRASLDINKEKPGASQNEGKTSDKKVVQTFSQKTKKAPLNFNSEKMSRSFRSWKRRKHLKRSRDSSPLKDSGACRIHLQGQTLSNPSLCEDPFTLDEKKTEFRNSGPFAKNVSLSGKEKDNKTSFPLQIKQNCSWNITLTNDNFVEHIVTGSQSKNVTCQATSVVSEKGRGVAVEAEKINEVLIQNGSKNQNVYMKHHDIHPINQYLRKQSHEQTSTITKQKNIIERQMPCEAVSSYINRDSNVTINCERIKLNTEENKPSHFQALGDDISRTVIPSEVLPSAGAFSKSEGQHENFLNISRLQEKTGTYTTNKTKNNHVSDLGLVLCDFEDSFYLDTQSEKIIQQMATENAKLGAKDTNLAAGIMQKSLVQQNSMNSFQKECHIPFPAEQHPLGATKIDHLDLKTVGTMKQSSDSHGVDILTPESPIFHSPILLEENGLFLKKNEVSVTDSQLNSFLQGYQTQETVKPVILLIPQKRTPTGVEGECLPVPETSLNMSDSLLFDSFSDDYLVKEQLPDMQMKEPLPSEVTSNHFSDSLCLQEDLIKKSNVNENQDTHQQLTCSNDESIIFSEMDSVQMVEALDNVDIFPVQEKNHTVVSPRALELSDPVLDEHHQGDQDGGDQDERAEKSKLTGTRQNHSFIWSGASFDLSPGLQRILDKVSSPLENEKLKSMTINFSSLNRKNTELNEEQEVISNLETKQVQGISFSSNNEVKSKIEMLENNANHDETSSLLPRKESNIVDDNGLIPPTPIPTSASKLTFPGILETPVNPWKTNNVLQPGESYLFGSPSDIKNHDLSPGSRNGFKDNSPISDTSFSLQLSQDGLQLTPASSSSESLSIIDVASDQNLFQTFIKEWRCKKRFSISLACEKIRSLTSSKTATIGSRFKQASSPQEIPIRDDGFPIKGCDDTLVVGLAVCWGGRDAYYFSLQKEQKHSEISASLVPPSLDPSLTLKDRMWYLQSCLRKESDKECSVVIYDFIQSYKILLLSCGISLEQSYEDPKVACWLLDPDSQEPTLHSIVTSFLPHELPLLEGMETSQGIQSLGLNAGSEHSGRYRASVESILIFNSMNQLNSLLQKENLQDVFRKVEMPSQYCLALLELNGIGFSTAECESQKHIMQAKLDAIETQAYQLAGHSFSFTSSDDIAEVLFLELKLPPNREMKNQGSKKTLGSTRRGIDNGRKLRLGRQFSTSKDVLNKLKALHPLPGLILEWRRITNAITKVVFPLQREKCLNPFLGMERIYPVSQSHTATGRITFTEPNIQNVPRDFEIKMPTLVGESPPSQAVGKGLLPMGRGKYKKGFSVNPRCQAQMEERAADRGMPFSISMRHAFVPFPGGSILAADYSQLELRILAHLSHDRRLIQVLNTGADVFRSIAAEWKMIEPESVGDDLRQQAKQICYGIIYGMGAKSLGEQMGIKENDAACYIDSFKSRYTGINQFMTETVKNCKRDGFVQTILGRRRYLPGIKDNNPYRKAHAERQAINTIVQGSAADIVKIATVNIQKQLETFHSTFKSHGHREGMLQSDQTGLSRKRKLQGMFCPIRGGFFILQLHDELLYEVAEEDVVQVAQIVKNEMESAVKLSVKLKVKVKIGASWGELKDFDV
Compound = O=c1c2ccccc2[nH]c(=S)n1CCN1CCC(=C(c2ccc(F)cc2)c2ccc(F)cc2)CC1; value = 102% and 106%
Compound = OCCN1CCN(CC/C=C2/c3ccccc3Sc3ccc(Cl)cc32)CC1; value = 110%
Compound = NC[C@H]1O[C@H](O[C@H]2[C@H](O)[C@@H](O[C@H]3O[C@H](CO)[C@@H](O)[C@H](N)[C@H]3O)[C@H](N)C[C@@H]2N)[C@H](N)C[C@@H]1O; value = 99.8%
Compound = CC1COc2c(N3CCN(C)CC3)c(F)cc3c(=O)c(C(=O)O)cn1c23 (centres unmarked); value = 92.7%
Compound = CC(C(=O)O)c1ccc(N2Cc3ccccc3C2=O)cc1 (centres unmarked); value = 88.3%
Compound = CC[C@@H]1C(=O)N(C)c2cnc(Nc3ccc(C(=O)N[C@H]4CC[C@H](N5CCN(CC6CC6)CC5)CC4)cc3OC)nc2N1C(C)C; value = 99.9%
Compound = C[n+]1cccc(C(=O)[O-])c1; value = 100%
Compound = C=CCc1ccc(O)c(-c2ccc(O)c(CC=C)c2)c1; value = 93.2%
Compound = O=c1cc[nH]c(=S)[nH]1; value = 102%
Compound = COc1ccc2c(c1)c1c3c(c4c5ccccc5n(C)c4c1n2CC(O)CN(C)C)C(=O)NC3=O (centres unmarked); value = 96.6%

A few entries again (study 3):
SMILES = Cc1cn(-c2cc(NC(=O)c3ccc(C)c(Nc4nccc(-c5cccnc5)n4)c3)cc(C(F)(F)F)c2)cn1; value = 95.2%
SMILES = COc1cc2ncnc(Nc3cccc(Cl)c3)c2cc1OC; value = 95.2%
SMILES = O=C1C(Cl)=C(N2C(=O)CCC2=O)C(=O)c2ccccc21; value = 102%
